Experimental data from different studies.
Lines come from different studies, so protocols differ. ± gives the spread as reported. ≈ marks a conversion by molar mass, not a printed value.

Compound | organism | test | test system | setting | scale | quantity | value
COc1ccc(-c2oc3ccc(-c4cc(OC)c(OC)c(OC)c4)cc3c2C#CC(C)(C)O)cc1 | hepatitis C virus | HCV replicon replication | Huh-7.5.1, genotype 1a transient replicon | 10 µM | relative to: DMSO | remaining activity | 106%
CC1(C)C(C=C(Cl)Cl)C1C(=O)OCc1ccccc1 (stereo not drawn) | Anopheles funestus | glazed tile contact bioassay | FUMOZ-R resistant | 24 h | relative to: LC50 FUMOZ-R over LC50 FANG | resistance ratio | 3.77
C=C(C)[C@@H]1CC[C@]2(C(=O)NC(CO)Cc3ccccc3)CC[C@]3(C)[C@H](CC[C@@H]4[C@@]5(C)CCCNC(C)(C)[C@@H]5CC[C@]43C)[C@@H]12 (stereo partly drawn) | Human papillomavirus 11 | viral replication | C-33 A | – | relative to: CC50 over EC50 | selectivity index | < 3
COc1ccc(-c2ccc3oc(-c4ccc(OC)cc4)c(C#CC4(O)CCCCC4)c3c2)cc1 | hepatitis C virus | HCV replicon replication | Huh-7.5.1, genotype 1a transient replicon | 10 µM | relative to: DMSO | remaining activity | 137%
Nc1ccn(C[C@@H](CO)OCP(=O)(O)OCCCS(=O)(=O)CCCCCCCCCCCCC2CCC2)c(=O)n1 | human gammaherpesvirus 4 | qPCR | Akata | – | relative to: CC50 over EC50 | selectivity index | 241
Cc1nccc2c3ccccc3n(Cc3cccnc3)c12 | Echinococcus granulosus sensu stricto | – | protoscoleces | 48 h | – | LC50 | 57 ± 2 µM
Oc1ccc(C(F)(F)F)cc1-c1nc2c(Cl)cc(Cl)cc2[nH]1 | Acinetobacter baumannii | colistin potentiator | AB 1E4, colistin-resistant | 5 µM | – | MIC of colistin | 1 µg/mL
O.O=[N+]([O-])[O-].O=c1cc[nH]c(=S)[nH]1.[Ag+].c1ccc(P(c2ccccc2)c2ccccc2)cc1.c1ccc(P(c2ccccc2)c2ccccc2)cc1 | Shigella flexneri | – | MTCC 1457, DMSO | 0.1 mL of 50 mg/mL in 8 mm well, 18 to 24 h | – | inhibition zone diameter | 26 mm
CCn1c(-c2ccc(-c3ccc(F)cc3)cc2)c(-c2ccc(-c3ccc(F)cc3)cc2)n(CC)c1=[Se+][Au-][P+](CC)(CC)CC.[Cl-] | Acinetobacter baumannii | item: TrxB | carbapenem-resistant | concentration not given, 2 h | – | mRNA level | no effect
CC(=O)Oc1ccc(Cn2nc(C)c(=O)[nH]c2=O)cc1C1OC(c2cccc(Cl)c2)=NN1C(C)=O (stereo not drawn) | varicella-zoster virus | plaque formation, plaque reduction | HEL fibroblasts, TK+ strain OKA | – | – | EC50 | > 20 µM
CC(=O)[O-].F[P-](F)(F)(F)(F)F.[Cu+2].c1ccc(CN2CCN3CCN(CC2)CCN(Cc2ccccc2)CC3)cc1 | Leishmania donovani | parasite growth | THP-1 macrophages | intracellular amastigotes | – | IC90 | > 20 µM
CN[C@@H]1[C@H](O)[C@H](NC)[C@H]2O[C@]3(O)[C@H](O[C@@H]2[C@H]1O)O[C@H](C)C[C@@]3(O)CNCc1ccc(OC(F)(F)F)cc1 | Neisseria meningitidis | – | ATCC 13077 | 40 µg per disc | – | inhibition zone diameter | 18 to 19 mm
CN1CC(=O)N=C1N.C[C@H](CCC(=O)O)[C@H]1CC[C@H]2[C@@H]3CC[C@@H]4C[C@H](O)CC[C@]4(C)[C@H]3C[C@H](O)[C@]12C | Enterococcus faecalis | – | TISTR 927 | 1 mg per disc, 18 to 24 h, 37 °C, 6 mm disc | – | inhibition zone diameter | 11.2 ± 1.1 mm
Cc1ccc2ccc3ccc(C)nc3c2n1.Cc1ccc2ccc3ccc(C)nc3c2n1.O.[Cl-].[Cl-].[Cl-].[Yb+3] | Enterococcus | – | vancomycin-resistant | 5 mg/mL | – | zone of inhibition | 9 mm
C=CC1CN(C(=O)NCC=CCSSSCC=CCNC(=O)N2CC(C=C)OC2=S)C(=S)O1 (stereo not drawn) | human alphaherpesvirus 1 | – | – | – | relative to: CC50 over EC50 | selectivity index | 2.68
CC[C@H](C)[C@H](NC(=O)[C@H](CCCCN)NC(=O)[C@H](CCCCN)NC(=O)[C@H](CC(C)C)NC(=O)[C@H](CCCCN)NC(=O)[C@H](CCC(=O)O)NC(=O)[C@H](CCCCN)NC(=O)[C@@H](NC(=O)[C@H](CCCCN)NC(=O)[C@H](CC(N)=O)NC(=O)[C@H](CCCNC(=N)N)NC(=O)[C@H](Cc1ccccc1)NC(=O)[C@H](CCCCN)NC(=O)[C@H](CCCNC(=N)N)NC(=O)[C@H](CC(C)C)NC(=O)[C@H](CCCNC(=N)N)NC(=O)[C@H](CCCCN)NC(=O)[C@H](CCCNC(=N)N)NC(=O)[C@H](CC(C)C)NC(=O)[C@@H](N)CC(C)C)[C@@H](C)CC)C(=O)NCC(=O)N[C@@H](CCC(N)=O)C(=O)N[C@@H](CCCCN)C(=O)N[C@H](C(=O)N[C@@H](CCC(N)=O)C(=O)NCC(=O)N[C@@H](Cc1ccccc1)C(=O)N[C@H](C(=O)N1CCC[C@H]1C(=O)N[C@@H](CCCCN)C(=O)N[C@@H](CC(C)C)C(=O)N[C@H](C(=O)N1CCC[C@H]1C(=O)N[C@@H](CCCNC(=N)N)C(=O)N[C@H](C(=O)N[C@@H](CCC(=O)O)C(=O)N[C@@H](CO)C(=O)O)[C@@H](C)O)C(C)C)C(C)C)[C@@H](C)CC | Stenotrophomonas maltophilia | inhibition zone | CGMCC 1.179 | LB agar, overnight | – | lethal concentration | 3.21 µM
c1ccc(CN2CCNCCN(Cc3ccccc3)CCNCC2)cc1 | Leishmania donovani | parasite growth, resazurin | – | 72 h, amastigote | – | IC90 | > 25 µM
CCCCc1ccc(-c2nc(C)c(C(C)=NNC(=N)N)s2)cc1 | Staphylococcus aureus | – | NRS19 VISA | – | – | MBC | 2.6 µg/mL (≈ 7.89 µM)
N#Cc1c2nc3ccccc3nc2n2ccc(NC(=O)c3ccccc3Cl)cc12 | Mycolicibacterium smegmatis | microbial growth | – | 24 h | – | MIC50 | > 100 µM
F[P-](F)(F)(F)(F)F.F[P-](F)(F)(F)(F)F.[Cu+2].c1ccc(CN2CCCNCCN(Cc3ccccc3)CCCNCC2)cc1 | Leishmania donovani | parasite growth | THP-1 macrophages | intracellular amastigotes | – | IC90 | > 15 µM
CC[C@H](C)[C@H](NC(=O)[C@H](C)NC(=O)[C@@H](NC(=O)[C@H](CC(=O)O)NC(=O)[C@H](CCCCN)NC(=O)[C@H](CO)NC(=O)[C@@H](NC(=O)[C@H](CC(N)=O)NC(=O)[C@H](C)NC(=O)[C@@H](NC(=O)[C@H](CCC(=O)O)NC(=O)[C@H](CCCCN)NC(=O)[C@@H](NC(=O)[C@@H](NC(=O)[C@H](Cc1c[nH]cn1)NC(=O)[C@H](CCCCN)NC(=O)[C@@H](NC(=O)[C@H](CCCCN)NC(=O)[C@H](CCCCN)NC(=O)[C@@H](NC(=O)[C@H](CC(C)C)NC(=O)[C@H](CCCCN)NC(=O)[C@H](CC(N)=O)NC(=O)[C@H](Cc1ccccc1)NC(=O)[C@H](CCCNC(=N)N)NC(=O)[C@H](CCCCN)NC(=O)[C@H](CCCNC(=N)N)NC(=O)[C@H](Cc1ccccc1)NC(=O)CN)C(C)C)C(C)C)[C@@H](C)O)[C@@H](C)CC)[C@@H](C)O)C(C)C)C(C)C)C(=O)N[C@H](C(=O)N[C@@H](C)C(=O)NCC(=O)N[C@@H](CO)C(=O)NCC(=O)N[C@H](C(=O)N[C@@H](C)C(=O)N[C@H](C(=O)NCC(=O)N[C@@H](C)C(=O)N[C@@H](C)C(=O)N[C@@H](CCSC)C(N)=O)C(C)C)C(C)C)C(C)C | Gram-negative bacteria except Klebsiella pneumoniae | – | MDR clinical isolates | – | – | MIC90 | 8 µg/mL (≈ 1.85 µM)
[O-][N+]1=C(Cc2ccccc2)C2=NCCCN2c2ccccc21 | Bacteroides fragilis | microbial growth | ATCC25285 | – | – | MIC | 1 µg/mL (≈ 3.43 µM)
CC(=O)[O-].CN1CCN2CCN(CC1)CCN(Cc1ccccc1)CC2.F[P-](F)(F)(F)(F)F.[Cu+2] | Leishmania donovani | parasite growth, resazurin | – | 72 h, amastigote | – | IC90 | > 20 µM
O=S(=O)(CCC(F)(F)F)N[C@H]1CC[C@H](Nc2ncc3c(-c4ccccn4)n[nH]c3n2)CC1 | Leishmania donovani | – | promastigotes | – | relative to: wild type | fold change EC50 | 1

Some of these lines once more:
Compound | organism | test | test system | setting | scale | quantity | value
CC[C@H](C)[C@H](NC(=O)[C@H](C)NC(=O)[C@@H](NC(=O)[C@H](CC(=O)O)NC(=O)[C@H](CCCCN)NC(=O)[C@H](CO)NC(=O)[C@@H](NC(=O)[C@H](CC(N)=O)NC(=O)[C@H](C)NC(=O)[C@@H](NC(=O)[C@H](CCC(=O)O)NC(=O)[C@H](CCCCN)NC(=O)[C@@H](NC(=O)[C@@H](NC(=O)[C@H](Cc1c[nH]cn1)NC(=O)[C@H](CCCCN)NC(=O)[C@@H](NC(=O)[C@H](CCCCN)NC(=O)[C@H](CCCCN)NC(=O)[C@@H](NC(=O)[C@H](CC(C)C)NC(=O)[C@H](CCCCN)NC(=O)[C@H](CC(N)=O)NC(=O)[C@H](Cc1ccccc1)NC(=O)[C@H](CCCNC(=N)N)NC(=O)[C@H](CCCCN)NC(=O)[C@H](CCCNC(=N)N)NC(=O)[C@H](Cc1ccccc1)NC(=O)CN)C(C)C)C(C)C)[C@@H](C)O)[C@@H](C)CC)[C@@H](C)O)C(C)C)C(C)C)C(=O)N[C@H](C(=O)N[C@@H](C)C(=O)NCC(=O)N[C@@H](CO)C(=O)NCC(=O)N[C@H](C(=O)N[C@@H](C)C(=O)N[C@H](C(=O)NCC(=O)N[C@@H](C)C(=O)N[C@@H](C)C(=O)N[C@@H](CCSC)C(N)=O)C(C)C)C(C)C)C(C)C | Gram-negative bacteria except Klebsiella pneumoniae | – | MDR clinical isolates | – | – | MIC90 | 8 µg/mL (≈ 1.85 µM)
